Published values gathered from unrelated publications.
A part holds a random share of what one study measured.

Study 1 — method: aptamer microarray, sandwich; form: DNA with 2'F-ANA; sample: in vitro; tested at: 200 nM; with: Cy3 exosite-II aptamer, 400 nM; reading: higher = stronger binding; strand: GGTTGGTGTGGTTGG
Target: Prothrombin, mature alpha-thrombin (F2, Homo sapiens, UniProt P00734)
Notes: whole 15-mer aptamer, many near background
Modification	mean fluorescence intensity [a.u.]
2'F-ANA at 2 6 8 9 10 12	156
2'F-ANA at 2 3 15	839
2'F-ANA at 2 3 4 6 8 14 15	242
2'F-ANA at 3 5 6 7 12 14	73.9
2'F-ANA at 5 6 7 8 10	45.3
2'F-ANA at 1 5 7 8 9 10 11	46.5
2'F-ANA at 1 2 7 8 9 10 13	49.4
2'F-ANA at 3 7 8 11 12 14 15	783
2'F-ANA at 2 3 4 6 7 9 10 11 12 13 15	179
2'F-ANA at 2 6 8 15	404
2'F-ANA at 1 4 5 8 15	60.2
2'F-ANA at 5 6 7 11 13 14	46.6
2'F-ANA at 3 6 7 8 12 13 14 15	663
2'F-ANA at 4 6 8 9 10 11 12 13 14	55.2
2'F-ANA at 2 3 5 6 8 10 12 14	85.1
2'F-ANA at 3 7 8 9 10 13 14	491
2'F-ANA at 1 2 3 5 6 8 10 11 12 13 14	50.1
2'F-ANA at 1 7 9 12 13	235
2'F-ANA at 1 2 4 5 7 8 10 12 13 15	53.2
2'F-ANA at 1 2 3 4 5 6 7 8 9 10 13 14	54.9

Study 2 — method: RNA Bind-n-Seq; form: RNA; sample: in vitro; tested at: 365 nM; relative to: no-protein control; reading: higher = stronger binding
Target: RNA binding protein fox-1 homolog 2, RRM domain, GST-SBP tag (RBFOX2, Homo sapiens, UniProt O43251-10, residues 100-194)
Notes: natural RNA segment, single round, ends assumed
Shared flanks, not repeated: GGGAGUUCUACAGUCCGACGAUC … UGGAAUUCUCGGGUGCCAA
Construct (chain): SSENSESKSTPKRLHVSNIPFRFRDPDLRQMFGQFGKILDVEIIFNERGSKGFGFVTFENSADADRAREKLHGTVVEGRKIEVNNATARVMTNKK
Strand	RBNS enrichment (R)
CCAUGAUUUGAUUUGUGUUCUCAAAGCAAGUGUGCCCUUUGGUUCUGCAGAGCAGGCCCACUUCCUGUCCCUGAGCCCAUCUUCAUUUCUAGAGGGCUGACCCUGAGCAC	0.218
UCCCUCUGGCGGUGGGGGAGGGGCGGAGUUGUGUGUAAUUUAAGACAAUUUAAGGUCUUUUCUAAACACGAUAGUUAUAAAUGUCCUUUUUAGAUCUUCUGGGGUAUGCA	4.83
AGAUGGUCAAAACCCAGUUUUCCCUCUGGGAGCCUAAACCAGGCUGCAUCGGAGGCCAGGACCCGGAUCAUUCACUGUGAUACCCUGCCCUCCAGAGGGUGCGCUCAGAG	0.193
GCCCCGUCCUGGUGCCUCUUCUGGAUGUCCCCAGAUCAUCAUAUCUAUCACCACGAGAGAACUUCCCAUCCAGGGCAGAACUCUGAUCUUAAACACUUCCCACUGCCAGA	0.417
UGUGUGCCUGGGAGCAGGUUACAACUCUGGUUUGACUUUCAUUUUGUUGAGAAGCUUCUGUUUUAAGGAAUUUCUCCUUCUUGUCUCAUUCCUGCCUUUCCUGGGAAGGG	0.33
UGCCCCAGAUUGCAAAUGCAUCCAGUCAGUAAUAUCACUGUCUGUAUGUGGAGGACAUGUUCCCAUGGAUCAUAUGUGAAGAUGUCAAUAAGCUUGCAUUAAGCCACCUG	0.222
CCCAGGAUCUCCUGCCAGCCCAGCUGGCCUGGCCCCCAGCUUCACCUCUGGGACCCCAGCUGCUCUAAGCCCAGGAUCUCUUUCCCCAAGGACCCAGCCCUCGCCUCUGC	0.326
UGCCGCAGCAUCUCACACCCCGAGGGCCUGAGGAGAGGGAGCUGUGGGCCACGCCUGGGAGGGGCCCAGCUGGGGUUACUGGCCCCGCAUGAGCCUCGGCCAUCUCUCCC	1.86

Study 3 — method: RNA Bind-n-Seq; form: RNA; sample: in vitro; tested at: 200 nM; notes: whole 134-nt RNA, ends assumed; with: 150 mM KCl; relative to: input library; reading: higher = stronger binding
Target: Fragile X messenger ribonucleoprotein 1, C-terminal low-complexity region (Fmr1, Mus musculus, UniProt P35922)
Shared flanks, not repeated: GGGAGUUCUACAGUCCGACGAUC … UGGAAUUCUCGGGUGUCAAGG
Strand	log2 enrichment
UCCUGUGCUACACAUCGUAUGUACCGAAUCGGGGUUUUUGGGGUUUUUUUGGGGAGGGGAAAGUAUUAUGUUACGCCGUUCGGAUCUGCA	0.74
CAAGUCCUGUGCUACACAUCGUAUGUACCGAAUCGGGUGGGUUUGGGAAAAAGGGAAAGUAUUAUGUUACGCCGUUCGGAUCUGCACUUC	1.04
GCAGGAAGUAAAAACAAAUGGAAAUGCUUCGGAUAGUGGCAGGGGUGGGGGUUGCUAAGGAAACGGUGGGAUGGGAGUGGGUAAAGAGUU	0.243
GUCCUGUGCUACACAUCGUAUGUACCGAAUCGGGUUUUUUGGUUUUUUGGUUUUUUGGAAAGUAUUAUGUUACGCCGUUCGGAUCUGCAC	-0.919
UUUGACGCGGUGUGUUACGUGGGGGAGAGAAUAAAACUCCAGCGAGAUCCGGGCCGUGAACGAAAGCAGUGACGGAGGAGCUUGUACCAC	0.574
GCAGGAAGUAAAAACAAAUGGAAAUGCUUCGGAUAGUGGCAGGGGUGGGGGUUGCUAAGGAAAGGGUGGGAUGGGAGUGGGUAAGGAGUU	-0.127
ACCAUGCAGGUGGGCAUCUUUGGGAAUUGGGGCAAGGGGGGGAUAGGGAGGGGGGUAACACUUUGGGAACAGGUGGUCCCAGGUCGUUUC	0.91
UCAAGUCCUGUGCUACACAUCGUAUGUACCGAAUCGGGUUUGGUUUGGUUUGGGGAAAGUAUUAUGUUACGCCGUUCGGAUCUGCACUUC	-0.453
CUGUGCUACACAUCGUAUGUACCGAAUCGGGGAAAAAGGGGAAAAAAAGGGGAAAAAGGGGAAAGUAUUAUGUUACGCCGUUCGGAUCUG	-0.279

Study 4 — method: protein-binding microarray; form: double-stranded DNA, one strand shown; sample: in vitro; tested at: 2540 nM top; notes: 60-bp whole probe; with: salmon DNA 0.4 mg/ml; relative to: random background probes; reading: higher = stronger binding; shared flanks, not repeated: GCCTAGCAC … GTCTTGATTCGCTTGACGCTGCTG
Target: Interferon regulatory factor 3, full length, phosphomimetic (IRF3, Homo sapiens, UniProt Q14653, residues 1-427, S386D/S396D/S398D/S402D/T404D/S405D)
Construct (chain): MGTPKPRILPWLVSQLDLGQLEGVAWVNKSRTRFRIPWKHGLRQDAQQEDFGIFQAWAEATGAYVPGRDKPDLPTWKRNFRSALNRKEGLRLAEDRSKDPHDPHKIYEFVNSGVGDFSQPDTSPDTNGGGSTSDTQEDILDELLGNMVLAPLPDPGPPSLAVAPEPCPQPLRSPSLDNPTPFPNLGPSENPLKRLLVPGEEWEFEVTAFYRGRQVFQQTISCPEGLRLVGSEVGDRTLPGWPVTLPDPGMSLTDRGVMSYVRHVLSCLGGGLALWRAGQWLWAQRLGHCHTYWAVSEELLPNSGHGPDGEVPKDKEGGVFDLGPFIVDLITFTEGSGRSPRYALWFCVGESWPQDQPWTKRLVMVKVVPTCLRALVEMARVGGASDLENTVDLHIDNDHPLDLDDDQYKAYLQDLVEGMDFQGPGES
Strand	fitted relative affinity
GGCCGTCTGAGCTCCGTAGCGTGCTAG	-0.789 z-score
TTAGGACTGCTACTGCTTCAGTGCTAG	-0.561 z-score
TTAGGTATCGTTTTCCTTTAGTGCTAG	5.96 z-score
GACGATATCGGGACTGGAGAAGTGCTA	0.216 z-score
GACGCACTGGACTATCGGGACGTGCTA	-0.47 z-score
TTAGGTTTCGGGTCCGGTTAGTGCTAG	4.6 z-score
TTAGGACTGAACTATCGGTTAGTGCTA	0.0816 z-score
GACGAACTGACACTGGAGACGTGCTAG	-0.0239 z-score
GACGGACTGGGGTTTCGGGCCGTGCTA	-0.339 z-score
CCTGGCTCCATGGAATTTTTGTGCTAG	-0.708 z-score
TCAAGTCTCATATTTATACTGTGCTAG	1.06 z-score
GACGATTTCGACTATCGGGACGTGCTA	1.16 z-score
GACGATTTAGGGTATCGAGACGTGCTA	0.461 z-score
TTATGTATCGGGTATCGGTTAGTGCTA	2.03 z-score
TTAGGTATCGGTTTTCGGTTAGTGCTA	6.02 z-score
GGGCCTAGCCATTATGAGTCTGTGCTA	-0.933 z-score
TTAGAACTGAGTATCGATTAGTGCTAG	0.254 z-score

Repeated from above (study 4):
Strand	fitted relative affinity
GACGATATCGGGACTGGAGAAGTGCTA	0.216 z-score
TTAGGTATCGGTTTTCGGTTAGTGCTA	6.02 z-score
TTAGGACTGAACTATCGGTTAGTGCTA	0.0816 z-score
TCAAGTCTCATATTTATACTGTGCTAG	1.06 z-score
GGCCGTCTGAGCTCCGTAGCGTGCTAG	-0.789 z-score
TTAGGACTGCTACTGCTTCAGTGCTAG	-0.561 z-score
